Assay results pooled from the literature.
Lines come from different studies, so protocols differ. Several values in a cell are separate wells, animals, samples, runs or records. ± marks the error that the study gave. Values after ≈ are worked out from the molar mass of the structure shown.

Compound	cell line	assay	test system	setting	scale	endpoint	value
N=C(N)NCCC[C@H](NC(=O)[C@H](Cc1c[nH]c2ccccc12)NC(=O)[C@H](CCCNC(=N)N)NC(=O)[C@H](Cc1c[nH]c2ccccc12)NC(=O)[C@H](Cc1c[nH]c2ccccc12)NC(=O)[C@H](Cc1c[nH]c2ccccc12)NC(=O)[C@H](CCCNC(=N)N)NC(=O)[C@H](Cc1c[nH]c2ccccc12)NC(=O)[C@@H](N)CCCNC(=N)N)C(=O)N[C@@H](Cc1ccccc1)C(N)=O	mouse red blood cells	–	–	–	–	minimal haemolytic concentration	32 µM
C#CCOc1ccc(CN[C@@]2(C)C[C@H](O[C@H]3[C@H](Oc4c5cc6cc4Oc4ccc(cc4Cl)[C@@H](O)[C@@H](NC(=O)[C@@H](CC(C)C)NC)C(=O)N[C@@H](CC(N)=O)C(=O)N[C@H]6C(=O)N[C@H]4C(=O)N[C@H](C(=O)N[C@H](C(=O)NCC(N)=O)c6cc(O)cc(O)c6-c6cc4ccc6O)[C@H](O)c4ccc(c(Cl)c4)O5)O[C@H](CO)[C@@H](O)[C@@H]3O)O[C@@H](C)[C@H]2O)cc1OC	sheep erythrocytes	–	–	512 µg/mL, 37 °C	baseline: Triton X-100	hemolysis	< 5%
CN(C)CCCNC(=O)[C@@H]1NC(=O)[C@@H]2Cc3ccc(cc3)Oc3cc4cc(c3O)-c3ccc5c(c[nH]c5c3)C[C@@H](NC(=O)C(NC(=O)CCCCCN)c3ccc(O)cc3)C(=O)N[C@H](c3ccc(O)cc3)C(=O)N[C@H]4C(=O)N[C@@H](C(=O)N2C)c2ccc(cc2)Oc2cc1ccc2O (stereo partly shown)	human red blood cells	–	PBS	1 µg/mL, 1 h, pH 7.4, 37 °C	–	hemolysis	0.95% and 0%
O=C(O)c1cccc(CP(=O)(O)O)n1	H4IIE	cytotoxicity, Alamar blue	DMEM without FBS	24 h, 10% FBS	–	EC50	700 ± 200 µg/mL (≈ 3.22 mM)
Cc1ccc(OC[C@@H]2CCCN2C)cc1C(=O)N[C@H](C)c1cc(-c2cnn(C)c2)nc2ccccc12	African green monkey cells	–	–	31.25 µM	–	viability	93%
CC[C@H](C)[C@H](NC(=O)[C@@H](NC(=O)[C@H](C)NC(=O)[C@H](C)NC(=O)[C@H](CCC(N)=O)NC(=O)CNC(=O)[C@@H](NC(=O)[C@@H](NC(=O)[C@H](C)NC(=O)[C@@H](NC(=O)[C@H](C)NC(=O)[C@@H]1CCCN1C(=O)CNC(=O)[C@H](C)NC(=O)[C@H](CCCCN)NC(=O)[C@@H](NC(=O)[C@@H](NC(=O)CNC(=O)[C@H](CC(=O)O)NC(=O)[C@H](CCCNC(=N)N)NC(=O)[C@@H](NC(=O)[C@H](CC(N)=O)NC(=O)[C@H](CCC(N)=O)NC(=O)CNC(=O)[C@@H](NC(=O)[C@H](CCCCN)NC(=O)[C@H](CCC(=O)O)NC(=O)[C@@H](NC(=O)[C@H](CCCCN)NC(=O)[C@H](CCCCN)NC(=O)[C@H](Cc1ccccc1)NC(=O)[C@@H](NC(=O)[C@H](CCCCN)NC(=O)[C@H](Cc1c[nH]c2ccccc12)NC(=O)[C@@H](N)CCCNC(=N)N)[C@@H](C)CC)[C@@H](C)CC)C(C)C)[C@@H](C)CC)[C@@H](C)CC)C(C)C)C(C)C)C(C)C)C(C)C)[C@@H](C)O)C(N)=O	MDA-MB-231	CCK-8	–	8 µM, 24 h, 1% FBS	–	cytotoxicity	not toxic
O=C(N[C@H](Cc1ccccc1)C(=O)N[C@H](Cc1ccccc1)C(=O)N[C@@H](Cc1ccc(OP(=O)(O)O)cc1)C(=O)O)OCC1c2ccccc2-c2ccccc21	MCF-10A	Alamar Blue	–	10 µM	–	cytotoxicity	not toxic
N=C(N)NCCC[C@H](NC(=O)[C@H](Cc1c[nH]c2ccccc12)NC(=O)[C@H](CCCNC(=N)N)NC(=O)[C@H](Cc1c[nH]c2ccccc12)NC(=O)[C@H](Cc1c[nH]c2ccccc12)NC(=O)[C@H](Cc1c[nH]c2ccccc12)NC(=O)[C@H](CCCNC(=N)N)NC(=O)[C@H](Cc1c[nH]c2ccccc12)NC(=O)[C@@H](N)CCCNC(=N)N)C(N)=O	mouse red blood cells	–	–	–	–	minimal haemolytic concentration	> 128 µM
Cc1ccc(N(C)C2CN(C)C2)cc1C(=O)N[C@H](C)c1cc(-c2cnn(C)c2)nc2ccccc12	Vero E6	–	–	7.812 µM	–	viability	88.6% and 86% and 86.5%
CC(C)C[C@H](NC(=O)[C@H](CCCNC(=N)N)NC(=O)[C@H](CCCNC(=N)N)NC(=O)[C@@H](N)Cc1c[nH]c2ccccc12)C(=O)N[C@@H](Cc1c[nH]c2ccccc12)C(=O)N[C@@H](Cc1c[nH]c2ccccc12)C(=O)N[C@@H](Cc1c[nH]c2ccccc12)C(=O)N[C@@H](CCCNC(=N)N)C(=O)N[C@@H](Cc1c[nH]c2ccccc12)C(=O)O	HEK-293T cells	CCK-8	–	4 h, 37 °C, 10% cell death	–	lowest cytotoxic concentration	256 µg/mL
C[C@@H]1COCCN1c1nc(NCc2cccnc2C(F)(F)F)c2cccnc2n1	THP-1 cells	cytotoxicity	–	–	–	IC50	> 250 µM
CC(C)C[C@H](NC(=O)[C@H](CCCNC(=N)N)NC(=O)[C@H](Cc1c[nH]c2ccccc12)NC(=O)[C@H](CCCNC(=N)N)NC(=O)[C@H](Cc1c[nH]c2ccccc12)NC(=O)[C@H](Cc1c[nH]c2ccccc12)NC(=O)[C@H](Cc1c[nH]c2ccccc12)NC(=O)[C@H](CCCNC(=N)N)NC(=O)[C@H](Cc1c[nH]c2ccccc12)NC(=O)[C@@H](N)CCCNC(=N)N)C(N)=O	mouse red blood cells	–	–	–	–	minimal haemolytic concentration	32 µM
CCn1ccc(-c2cc([C@@H](C)NC(=O)c3cc(OC[C@@H]4CCCN4C)ccc3C)c3ccccc3n2)n1	Vero E6	–	–	15.62 µM	–	viability	86.2% and 89% and 85.4%
N=C(N)NCCC[C@H](NC(=O)CN)C(=O)N[C@@H](Cc1c[nH]c2ccccc12)C(=O)N[C@@H](CCCNC(=N)N)C(=O)N[C@@H](Cc1c[nH]c2ccccc12)C(=O)N[C@@H](Cc1c[nH]c2ccccc12)C(=O)N[C@@H](Cc1c[nH]c2ccccc12)C(=O)N[C@@H](CCCNC(=N)N)C(=O)N[C@@H](Cc1c[nH]c2ccccc12)C(=O)N[C@@H](CCCNC(=N)N)C(=O)N[C@@H](Cc1c[nH]c2ccccc12)C(N)=O	mouse red blood cells	–	–	–	–	minimal haemolytic concentration	8 µM
O=c1n(CCNCCOS(=O)(=O)c2ccccc2)c(=O)n(S(=O)(=O)c2ccccc2)c(=O)n1S(=O)(=O)c1ccccc1	HUVEC	cell growth or viability, MTT	–	200 µg/mL, 24 h	–	viability	35.2%
NC(=O)c1cc(-c2ccoc2)ccc1OCCc1cccc(F)c1	HepG2	–	–	3 (unit not given)	baseline: CC50 glucose over CC50 galactose	selectivity ratio	1
CNC(=O)CC1CN(C(=O)c2ccc(C(F)(F)F)cn2)CCN1C(=O)c1cccnn1 (stereo not shown)	Huh-7-ACE2	CellTiter-Glo	–	0.195 µM, 48 h, unit not given	baseline: DMSO	viability	1.07 and 1.12 and 1.19
O=C1C(Cl)=C(Cl)C(=O)c2ccccc21	MRC-5	cytotoxicity, MTT	–	48 h, 10% FBS	–	IC50	115 ± 4.11 µM
Cc1ccc(N2C[C@@H]3C[C@H]2CN3C)cc1C(=O)N[C@H](C)c1cc(-c2cnn(C)c2)nc2ccccc12	African green monkey cells	–	–	62.5 µM	–	viability	96.7%
CCCCNC(=O)c1ccc2nc(CC)c(N(C)Cc3ccc(OC)cc3)n2c1	bEnd.5	sulforhodamine B	–	100 µM, 72 h, serum-free medium	–	cytotoxicity	10%
O=C(C=Cc1ccc(O)c(O)c1)OC1CC(O)(C(=O)O)CC(OC(=O)C=Cc2ccc(O)c(O)c2)C1O (stereo not shown)	Vero E6	–	–	200 µM	–	cytotoxicity	25%
CCCCCC1=C(NCC)C(=O)C(C/C=C(\C)CCC=C(C)C)=C(O)C1=O	human peripheral blood lymphocytes	–	–	20 µg/mL, 24 h, without S9	–	cytostasis	52%
C#CCNC(=O)[C@H]1NC(=O)[C@H]2NC(=O)[C@H](NC(=O)[C@@H]3NC(=O)[C@H](CC(N)=O)NC(=O)[C@H](NC(=O)[C@@H](CC(C)C)NC)[C@H](O)c4ccc(c(Cl)c4)Oc4cc3cc(c4O[C@@H]3O[C@H](CO)[C@@H](O)[C@H](O)[C@H]3O[C@H]3C[C@](C)(N)[C@H](O)[C@H](C)O3)Oc3ccc(cc3Cl)[C@H]2O)c2ccc(O)c(c2)-c2c(O)cc(O)cc21	sheep erythrocytes	–	–	512 µg/mL, 37 °C	baseline: Triton X-100	hemolysis	< 5%
Cc1ccc(N2CC(N(C)C)C2)cc1C(=O)N[C@H](C)c1cc(-c2cnn(C)c2)nc2ccccc12	Vero E6	–	–	250 µM	–	viability	90.3% and 85.9% and 92.3%
CNC(=O)C[C@H](Cc1ccc(F)cc1)NC(=O)[C@@H](Cc1ccc(Cl)cc1Cl)NC(=O)[C@H](N)Cc1ccccc1[N+](=O)[O-]	Huh-7-ACE2	CellTiter-Glo	–	0.781 µM, 48 h, unit not given	baseline: DMSO	viability	0.874 and 0.938 and 0.965
